{"data": "Measured values pooled from the literature", "note": "Every numbered part comes from another study and shows a few of its results, in no order."}
{"data": "Set 1", "target": "Interferon regulatory factor 5, full length, phosphomimetic (IRF5, Homo sapiens, UniProt Q13568-2, residues 1-514, K96S/S451D/S453D/S456D/S462D)", "method": "protein-binding microarray", "form": "double-stranded DNA, one strand shown", "medium": "in vitro", "concentration": "250 nM", "notes": "60-bp whole probe", "with": "salmon DNA 0.4 mg/ml", "reference": "random background probes", "reading": "higher = stronger binding"}
{"Sequence": "GCCTAGCACTTAGATATCGGGATTGGATTAGTGCTAGTCTTGATTCGCTTGACGCTGCTG", "log fluorescence [z-score]": 1.64}
{"Sequence": "GCCTAGCACATCTTTTTCCTAATTGAACCGTGCTAGGTCTTGATTCGCTTGACGCTGCTG", "log fluorescence [z-score]": 0.912}
{"Sequence": "GCCTAGCACTCAACTTCCCAATTGTCACTGTGCTAGGTCTTGATTCGCTTGACGCTGCTG", "log fluorescence [z-score]": 0.239}
{"Sequence": "GCCTAGCACTCAGTTTTCTAATGTTTTACTGTGCTAGTCTTGATTCGCTTGACGCTGCTG", "log fluorescence [z-score]": 1.48}
{"data": "Set 2", "target": "Sal-like protein 4, full length isoform A (SALL4, Homo sapiens, UniProt Q9UJQ4, residues 1-1053)", "method": "universal PBM", "form": "double-stranded DNA, one strand shown", "medium": "in vitro", "concentration": "600 nM", "notes": "8-mer, flanks averaged, mean of replicates", "reading": "higher = stronger binding", "sequence of UniProt Q9UJQ4 (whole entry, looked up)": "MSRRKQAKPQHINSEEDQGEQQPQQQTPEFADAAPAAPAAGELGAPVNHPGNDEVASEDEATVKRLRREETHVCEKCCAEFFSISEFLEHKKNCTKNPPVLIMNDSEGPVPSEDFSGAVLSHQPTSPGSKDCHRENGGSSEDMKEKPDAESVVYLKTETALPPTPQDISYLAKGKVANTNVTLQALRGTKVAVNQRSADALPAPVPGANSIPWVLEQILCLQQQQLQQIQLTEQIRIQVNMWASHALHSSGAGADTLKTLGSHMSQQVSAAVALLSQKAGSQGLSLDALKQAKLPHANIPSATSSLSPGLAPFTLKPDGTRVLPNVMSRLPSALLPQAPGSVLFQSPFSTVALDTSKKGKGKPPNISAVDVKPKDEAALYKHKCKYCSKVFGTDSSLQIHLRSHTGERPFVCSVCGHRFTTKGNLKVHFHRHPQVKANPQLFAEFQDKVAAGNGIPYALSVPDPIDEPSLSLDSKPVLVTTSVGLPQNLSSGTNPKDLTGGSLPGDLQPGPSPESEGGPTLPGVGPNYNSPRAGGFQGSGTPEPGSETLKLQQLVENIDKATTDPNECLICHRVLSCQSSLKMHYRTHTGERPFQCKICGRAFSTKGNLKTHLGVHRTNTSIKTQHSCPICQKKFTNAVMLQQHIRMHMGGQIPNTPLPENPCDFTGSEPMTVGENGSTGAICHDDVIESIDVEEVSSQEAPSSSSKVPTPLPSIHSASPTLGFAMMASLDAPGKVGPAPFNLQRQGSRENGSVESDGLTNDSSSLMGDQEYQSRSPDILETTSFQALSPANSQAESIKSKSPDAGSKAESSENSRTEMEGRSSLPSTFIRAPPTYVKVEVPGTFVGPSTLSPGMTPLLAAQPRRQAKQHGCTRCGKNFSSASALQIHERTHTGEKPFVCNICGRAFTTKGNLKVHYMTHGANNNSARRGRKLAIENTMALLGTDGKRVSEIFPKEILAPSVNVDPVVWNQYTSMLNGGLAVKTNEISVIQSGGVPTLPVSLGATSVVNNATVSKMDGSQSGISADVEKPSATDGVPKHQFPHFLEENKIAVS"}
{"Sequence": "GCAACCGA", "E-score": -0.145}
{"Sequence": "TGTCATAA", "E-score": 0.365}
{"Sequence": "ACGCTCGG", "E-score": -0.187}
{"Sequence": "GCCATATA", "E-score": 0.239}
{"Sequence": "CCACACCA", "E-score": 0.119}
{"data": "Set 3", "target": "Histone acetyltransferase KAT6A, both winged helices, GST fusion (KAT6A, Homo sapiens, UniProt Q92794, residues 1-181)", "method": "protein binding microarray", "form": "double-stranded DNA, one strand shown", "medium": "in vitro", "concentration": "not given", "notes": "8-mer, flanks averaged, mean of 2 arrays, mostly near background", "reference": "not given", "reading": "higher = stronger binding", "Target sequence (chain)": "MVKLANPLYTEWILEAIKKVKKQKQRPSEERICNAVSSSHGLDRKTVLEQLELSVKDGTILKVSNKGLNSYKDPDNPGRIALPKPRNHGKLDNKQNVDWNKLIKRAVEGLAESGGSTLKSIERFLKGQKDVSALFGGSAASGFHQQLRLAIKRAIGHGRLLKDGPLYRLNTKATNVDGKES"}
{"Sequence": "GAGCTGCA", "E-score": -0.0494}
{"Sequence": "CTACTAGA", "E-score": -0.171}
{"Sequence": "CCAAGCCC", "E-score": -0.0269}
{"Sequence": "AGCGGAGA", "E-score": 0.00086}
{"Sequence": "GTTGATGA", "E-score": -0.114}
{"data": "Other studies, line by line"}
{"Molecule": "PhoQ, residues 284 288 289 292 302 303 SASVAL", "target": "PhoP, residues 12 14 15 18 19 SMASL (Escherichia coli, UniProt P23836)", "assay": "Sort-seq, refers to: YFP reporter", "test system": "E. coli", "setting": "PhoQ-PhoP variant library, with: 10 µM Mg2+", "scale": "reference: high Mg2+ state, higher = stronger signaling", "endpoint": "fold induction", "value": 1.57}
{"note": "Excerpt of the above (set 1):"}
{"Sequence": "GCCTAGCACTTAGATATCGGGATTGGATTAGTGCTAGTCTTGATTCGCTTGACGCTGCTG", "log fluorescence [z-score]": 1.64}
